{"data": "Experimental data of several laboratories", "note": "Each line is one published result; not all experiments were run side by side. Numbers after ± are the reported error.", "UniProt P70180, sequence (whole entry, looked up)": "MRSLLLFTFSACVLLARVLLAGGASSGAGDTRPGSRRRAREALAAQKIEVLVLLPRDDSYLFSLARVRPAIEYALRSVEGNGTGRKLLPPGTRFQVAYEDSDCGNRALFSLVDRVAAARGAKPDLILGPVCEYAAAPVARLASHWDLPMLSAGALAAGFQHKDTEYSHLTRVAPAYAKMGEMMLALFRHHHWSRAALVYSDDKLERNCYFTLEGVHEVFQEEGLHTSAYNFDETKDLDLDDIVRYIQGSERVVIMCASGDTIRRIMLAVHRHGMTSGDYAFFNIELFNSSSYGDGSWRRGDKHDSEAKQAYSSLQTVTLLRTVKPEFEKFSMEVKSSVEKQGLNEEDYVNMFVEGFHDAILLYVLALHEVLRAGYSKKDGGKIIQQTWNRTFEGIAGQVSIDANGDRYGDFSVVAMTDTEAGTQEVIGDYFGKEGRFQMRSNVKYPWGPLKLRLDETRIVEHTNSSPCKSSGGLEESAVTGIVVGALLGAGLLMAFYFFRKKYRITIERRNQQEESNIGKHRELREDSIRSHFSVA", "UniProt P34975, sequence (whole entry, looked up)": "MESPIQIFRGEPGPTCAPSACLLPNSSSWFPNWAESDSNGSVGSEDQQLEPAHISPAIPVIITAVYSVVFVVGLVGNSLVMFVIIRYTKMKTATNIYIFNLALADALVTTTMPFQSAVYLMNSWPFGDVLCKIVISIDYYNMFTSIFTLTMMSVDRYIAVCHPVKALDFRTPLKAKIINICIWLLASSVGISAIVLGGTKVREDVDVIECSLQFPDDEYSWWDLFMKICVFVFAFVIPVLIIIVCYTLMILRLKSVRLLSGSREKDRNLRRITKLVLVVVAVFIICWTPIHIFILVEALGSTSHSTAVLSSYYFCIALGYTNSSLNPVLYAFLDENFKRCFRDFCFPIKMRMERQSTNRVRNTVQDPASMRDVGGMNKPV", "UniProt P33535, sequence (whole entry, looked up)": "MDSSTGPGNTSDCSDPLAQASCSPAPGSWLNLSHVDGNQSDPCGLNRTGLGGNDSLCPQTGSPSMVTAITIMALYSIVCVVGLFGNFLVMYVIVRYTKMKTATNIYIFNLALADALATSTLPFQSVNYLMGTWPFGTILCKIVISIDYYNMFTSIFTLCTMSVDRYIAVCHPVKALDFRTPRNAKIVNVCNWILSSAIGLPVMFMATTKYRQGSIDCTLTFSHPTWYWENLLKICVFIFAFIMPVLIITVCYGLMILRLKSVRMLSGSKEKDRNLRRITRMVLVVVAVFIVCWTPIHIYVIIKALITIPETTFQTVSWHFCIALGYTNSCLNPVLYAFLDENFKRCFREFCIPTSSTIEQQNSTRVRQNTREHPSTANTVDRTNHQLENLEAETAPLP", "UniProt P41146, sequence (whole entry, looked up)": "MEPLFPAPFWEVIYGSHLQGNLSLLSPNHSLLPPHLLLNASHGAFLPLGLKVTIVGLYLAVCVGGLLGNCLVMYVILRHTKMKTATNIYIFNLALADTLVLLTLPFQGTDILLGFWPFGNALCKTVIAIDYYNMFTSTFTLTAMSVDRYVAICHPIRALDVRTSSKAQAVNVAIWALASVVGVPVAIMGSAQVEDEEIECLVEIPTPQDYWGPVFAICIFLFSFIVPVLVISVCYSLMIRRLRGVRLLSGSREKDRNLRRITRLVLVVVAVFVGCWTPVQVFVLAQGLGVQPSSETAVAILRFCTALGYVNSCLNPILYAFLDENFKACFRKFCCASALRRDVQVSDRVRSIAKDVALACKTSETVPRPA", "UniProt P42338, sequence (whole entry, looked up)": "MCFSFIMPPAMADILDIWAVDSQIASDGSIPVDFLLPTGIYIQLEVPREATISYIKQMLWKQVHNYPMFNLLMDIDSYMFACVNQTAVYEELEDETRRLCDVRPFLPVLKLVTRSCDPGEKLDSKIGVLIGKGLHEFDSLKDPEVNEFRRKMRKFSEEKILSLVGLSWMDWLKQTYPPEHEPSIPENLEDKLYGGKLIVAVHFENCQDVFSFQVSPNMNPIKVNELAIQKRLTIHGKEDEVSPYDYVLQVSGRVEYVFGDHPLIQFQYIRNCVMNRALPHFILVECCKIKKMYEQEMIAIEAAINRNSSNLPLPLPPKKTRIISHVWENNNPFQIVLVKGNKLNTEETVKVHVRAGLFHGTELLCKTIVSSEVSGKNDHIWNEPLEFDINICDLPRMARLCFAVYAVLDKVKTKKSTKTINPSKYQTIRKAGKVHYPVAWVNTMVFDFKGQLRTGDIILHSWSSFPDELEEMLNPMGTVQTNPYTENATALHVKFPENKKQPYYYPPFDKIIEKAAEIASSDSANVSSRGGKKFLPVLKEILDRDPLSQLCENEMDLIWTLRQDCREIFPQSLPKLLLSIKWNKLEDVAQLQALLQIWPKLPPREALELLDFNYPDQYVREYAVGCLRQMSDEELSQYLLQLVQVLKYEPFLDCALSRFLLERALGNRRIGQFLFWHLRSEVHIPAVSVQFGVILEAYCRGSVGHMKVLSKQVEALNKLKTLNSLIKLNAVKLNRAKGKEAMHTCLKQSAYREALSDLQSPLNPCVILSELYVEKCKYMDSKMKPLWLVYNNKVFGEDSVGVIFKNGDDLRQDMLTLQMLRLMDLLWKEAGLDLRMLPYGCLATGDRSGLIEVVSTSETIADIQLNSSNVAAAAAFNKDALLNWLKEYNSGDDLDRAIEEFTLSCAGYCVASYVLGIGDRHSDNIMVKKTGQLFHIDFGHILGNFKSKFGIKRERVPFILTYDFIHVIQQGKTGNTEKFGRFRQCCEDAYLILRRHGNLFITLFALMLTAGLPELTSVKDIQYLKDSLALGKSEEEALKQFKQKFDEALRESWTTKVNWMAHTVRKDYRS", "UniProt P35372, sequence (whole entry, looked up)": "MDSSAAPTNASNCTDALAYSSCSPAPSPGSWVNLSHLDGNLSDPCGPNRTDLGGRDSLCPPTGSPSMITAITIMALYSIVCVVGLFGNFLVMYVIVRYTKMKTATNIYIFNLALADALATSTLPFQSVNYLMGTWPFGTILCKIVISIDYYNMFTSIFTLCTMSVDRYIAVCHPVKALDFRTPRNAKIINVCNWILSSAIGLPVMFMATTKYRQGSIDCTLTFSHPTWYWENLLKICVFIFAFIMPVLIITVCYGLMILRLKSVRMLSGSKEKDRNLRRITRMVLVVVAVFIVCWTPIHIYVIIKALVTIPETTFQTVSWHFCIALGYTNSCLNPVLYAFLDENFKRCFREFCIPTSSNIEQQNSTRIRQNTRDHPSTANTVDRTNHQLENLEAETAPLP", "UniProt P11229, sequence (whole entry, looked up)": "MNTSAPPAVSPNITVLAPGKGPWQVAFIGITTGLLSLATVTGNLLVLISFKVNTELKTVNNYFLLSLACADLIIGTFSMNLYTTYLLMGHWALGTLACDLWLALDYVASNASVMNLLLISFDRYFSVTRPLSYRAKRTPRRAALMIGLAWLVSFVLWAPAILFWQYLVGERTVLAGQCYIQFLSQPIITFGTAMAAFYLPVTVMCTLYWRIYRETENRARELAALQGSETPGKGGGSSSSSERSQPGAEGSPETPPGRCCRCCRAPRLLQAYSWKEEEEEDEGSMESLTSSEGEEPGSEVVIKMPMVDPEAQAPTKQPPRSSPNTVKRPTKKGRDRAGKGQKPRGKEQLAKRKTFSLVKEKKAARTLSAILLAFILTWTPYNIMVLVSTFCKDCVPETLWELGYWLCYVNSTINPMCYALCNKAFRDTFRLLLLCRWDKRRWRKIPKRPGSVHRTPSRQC", "UniProt Q0P543, sequence (whole entry, looked up)": "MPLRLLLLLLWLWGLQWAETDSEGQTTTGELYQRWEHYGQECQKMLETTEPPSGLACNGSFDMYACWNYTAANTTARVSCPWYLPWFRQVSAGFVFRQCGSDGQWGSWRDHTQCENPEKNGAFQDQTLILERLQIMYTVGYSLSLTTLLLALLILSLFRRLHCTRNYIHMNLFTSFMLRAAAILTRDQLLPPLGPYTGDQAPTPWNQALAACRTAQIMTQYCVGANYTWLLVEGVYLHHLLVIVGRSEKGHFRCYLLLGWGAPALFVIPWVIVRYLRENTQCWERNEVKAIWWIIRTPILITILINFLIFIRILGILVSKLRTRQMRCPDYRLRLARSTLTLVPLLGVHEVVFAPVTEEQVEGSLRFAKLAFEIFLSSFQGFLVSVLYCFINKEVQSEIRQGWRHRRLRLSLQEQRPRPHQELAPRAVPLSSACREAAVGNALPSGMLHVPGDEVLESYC", "UniProt P00800, sequence (whole entry, looked up)": "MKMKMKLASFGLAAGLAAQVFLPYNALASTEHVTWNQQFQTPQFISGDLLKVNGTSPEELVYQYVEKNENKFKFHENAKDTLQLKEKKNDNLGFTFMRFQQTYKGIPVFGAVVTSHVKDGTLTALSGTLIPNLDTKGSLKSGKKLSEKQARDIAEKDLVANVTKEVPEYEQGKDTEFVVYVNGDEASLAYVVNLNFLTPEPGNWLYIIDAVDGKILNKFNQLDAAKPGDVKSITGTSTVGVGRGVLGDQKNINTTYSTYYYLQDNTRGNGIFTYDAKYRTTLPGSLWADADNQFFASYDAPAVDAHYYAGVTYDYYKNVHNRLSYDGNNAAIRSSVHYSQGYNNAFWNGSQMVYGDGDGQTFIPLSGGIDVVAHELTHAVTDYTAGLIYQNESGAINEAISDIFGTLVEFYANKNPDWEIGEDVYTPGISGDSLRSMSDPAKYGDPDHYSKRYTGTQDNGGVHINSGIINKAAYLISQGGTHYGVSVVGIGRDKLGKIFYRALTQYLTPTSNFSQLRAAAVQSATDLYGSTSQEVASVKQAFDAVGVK"}
{"SMILES": "CC[C@H](C)[C@H](NC(=O)[C@H](C)NC(=O)[C@@H](NC(=O)[C@H](CC(=O)O)NC(=O)[C@H](CCCCN)NC(=O)[C@H](CO)NC(=O)[C@@H](NC(=O)[C@H](CC(N)=O)NC(=O)[C@H](C)NC(=O)[C@@H](NC(=O)[C@H](CCC(=O)O)NC(=O)[C@H](CCCCN)NC(=O)[C@@H](NC(=O)[C@@H](NC(=O)[C@H](Cc1c[nH]cn1)NC(=O)[C@H](CCCCN)NC(=O)[C@@H](NC(=O)[C@H](CCCCN)NC(=O)[C@H](CCCCN)NC(=O)[C@@H](NC(=O)[C@H](CC(C)C)NC(=O)[C@H](CCCCN)NC(=O)[C@H](CC(N)=O)NC(=O)[C@H](Cc1ccccc1)NC(=O)[C@H](CCCNC(=N)N)NC(=O)[C@H](CCCCN)NC(=O)[C@H](CCCNC(=N)N)NC(=O)[C@H](Cc1ccccc1)NC(=O)CN)C(C)C)C(C)C)[C@@H](C)O)[C@@H](C)CC)[C@@H](C)O)C(C)C)C(C)C)C(=O)N[C@H](C(=O)N[C@@H](C)C(=O)NCC(=O)N[C@@H](CO)C(=O)NCC(=O)N[C@H](C(=O)N[C@@H](C)C(=O)N[C@H](C(=O)NCC(=O)N[C@@H](C)C(=O)N[C@@H](C)C(=O)N[C@@H](CCSC)C(N)=O)C(C)C)C(C)C)C(C)C", "target": "CHRM1 (Homo sapiens, UniProt P11229)", "assay": "antagonist, CEREP off-target panel", "setting": "10 µM", "endpoint": "inhibition", "result": "49%"}
{"SMILES": "NS(=O)(=O)c1ccc(NC(=O)c2ccccc2SSc2ccccc2C(=O)Nc2ccc(S(N)(=O)=O)cc2)cc1", "target": "Gag-Pol polyprotein, integrase (gag-pol, Human immunodeficiency virus type 1 group M subtype B, UniProt P04585, C1427S)", "assay": "DNA binding, fluorescence anisotropy", "system": "full-length integrase", "setting": "compound:IN ratio 3:1, with: 10 mM Mg2+, U5 DNA", "endpoint": "Hill coefficient", "result": 1.47}
{"SMILES": "CSCC[C@@H]1NC(=O)[C@H](Cc2ccccc2)NC(=O)CNC(=O)[C@H](NC(=O)[C@@H](N)Cc2ccc(O)cc2)CSSC[C@@H](C(=O)N[C@@H](Cc2c[nH]c3ccccc23)C(=O)NCc2cc(C(F)(F)F)cc(C(F)(F)F)c2)NC(=O)[C@@H]2CCCN2C1=O", "target": "Oprm1 (Rattus norvegicus, UniProt P33535)", "assay": "GTPγS binding, agonist, radiometric", "setting": "cell membranes", "endpoint": "Emax", "result": "36%"}
{"SMILES": "CSCC[C@H](NC(=O)[C@H](CCN)NC(=O)[C@@H](NC(=O)[C@H](Cc1c[nH]c2ccccc12)NC(=O)[C@H](CCCNC(=N)N)NC(=O)[C@@H](N)CCNc1ccc([N+](=O)[O-])cc1[N+](=O)[O-])[C@@H](C)O)C(=O)N[C@@H](CC(C)C)C(N)=O", "target": "Thermolysin (npr, Bacillus thermoproteolyticus, UniProt P00800)", "assay": "enzyme activity", "setting": "concentration not given", "endpoint": "inhibition", "result": "0%"}
{"SMILES": "CC[C@H](C)[C@@H]1NC(=O)[C@H](CCCNC(=N)N)NC(=O)[C@H](CC(=O)O)NC(=O)[C@H]([C@@H](C)CC)NC(=O)[C@H](CCCNC(=N)N)NC(=O)CNC(=O)CNC(=O)[C@H](Cc2ccccc2)NC(=O)[C@@H](NC(=O)[C@H](CO)NC(=O)[C@H](CO)NC(=O)[C@H](CCCNC(=N)N)NC(=O)CN2CCN(CC(=O)O)CCN(CC(=O)O)CCN(CC(=O)O)CC2)CSSC[C@@H](C(N)=O)NC(=O)[C@H](C)NC(=O)CNC1=O [copper-64 labelled]", "target": "Atrial natriuretic peptide receptor 3 (Mus musculus, UniProt P70180)", "assay": "PET/CT", "system": "C57BL/6 mice hind limb ischemia, previously ischemic limb", "setting": "iv, day 7 after surgery", "endpoint": "tracer uptake", "result": "1.85 ± 0.19 %ID/g"}
{"SMILES": "CC[C@H](C)[C@H](N)C(=O)N[C@@H](CC(N)=O)C(=O)N[C@@H](CC(N)=O)C(=O)N[C@H](C(=O)N1C[C@@H](n2cc([C]34[CH]5[CH]6[CH]7[CH]3[Fe]6754389%10[CH]4[CH]3[CH]8[CH]9[CH]4%10)nn2)C[C@H]1C(=O)N[C@@H](Cc1cn(C)c2ccccc12)C(N)=O)[C@@H](C)CC (stereo partly drawn)", "target": "Envelope glycoprotein gp160, gp120 (env, Human immunodeficiency virus type 1 group M subtype B, UniProt P35961, T253A)", "assay": "binding, isothermal titration calorimetry", "system": "HIV-1", "setting": "gp120 T257A", "endpoint": "−TΔS", "result": "2.7 ± 0.2 kcal/mol"}
{"SMILES": "CC[C@H](C)[C@H](NC(=O)[C@H](CCCN)NC(=O)[C@H](CC(=O)O)NC(=O)[C@H](CC(C)C)NC(=O)C(C)(CC(C)C)NC(=O)[C@@H](NC(=O)[C@H](CO)NC(=O)[C@H](Cc1ccc(O)cc1)NC(=O)[C@H](CC(=O)O)NC(=O)[C@H](CO)NC(=O)[C@@H](NC(=O)[C@H](Cc1ccccc1)NC(=O)[C@@H](NC(=O)CNC(=O)[C@H](CCC(=O)O)NC(=O)C(C)(C)NC(=O)[C@@H](N)Cc1ccc(O)cc1)[C@@H](C)O)[C@@H](C)CC)[C@@H](C)CC)C(=O)N[C@@H](Cc1c[nH]cn1)C(=O)N[C@@H](CCC(N)=O)C(=O)NC(C)(C)C(=O)N[C@@H](CC(=O)O)C(=O)N[C@@H](Cc1ccccc1)C(=O)N[C@H](C(=O)N[C@@H](CCC(=O)O)C(=O)N[C@@H](Cc1ccc(O)cc1)C(=O)N[C@@H](CCCCNC(=O)COCCOCCNC(=O)COCCOCCNC(=O)CC[C@H](NC(=O)CCCCCCCCCCCCCCCCCCC(=O)O)C(=O)O)C(=O)N[C@@H](CC(C)C)C(=O)N[C@@H](CCC(=O)O)C(=O)NCC(=O)NCC(=O)N1CCC[C@H]1C(=O)N[C@@H](CO)C(=O)N[C@@H](CO)C(=O)NCC(=O)N[C@@H](C)C(=O)N1CCC[C@H]1C(=O)N1CCC[C@H]1C(=O)N1CCC[C@H]1C(=O)N[C@@H](CO)C(N)=O)C(C)C (stereo partly drawn)", "target": "Gastric inhibitory polypeptide receptor (Mus musculus, UniProt Q0P543)", "assay": "cAMP, agonist", "system": "HEK293", "endpoint": "Emax", "result": "101%"}
{"SMILES": "Cc1cc(O)cc(C)c1C[C@H](N)C(=O)NCC(=O)NCC(=O)N[C@@H](Cc1ccccc1)C(=O)N[C@H](C(=O)NCC(=O)N[C@@H](C)C(=O)N[C@@H](CCCNC(=N)N)C(=O)N[C@@H](CCCCN)C(=O)N[C@@H](CO)C(=O)N[C@@H](C)C(=O)N[C@@H](CCCNC(=N)N)C(=O)N[C@@H](CCCCN)C(N)=O)[C@@H](C)O", "target": "OPRM1 (Homo sapiens, UniProt P35372)", "assay": "calcium mobilization, agonist", "system": "CHO cells expressing Gαqi5 chimera", "scale": "baseline: basal", "endpoint": "Emax", "result": "306 ± 10%"}
{"SMILES": "C[C@H](NC(=O)CNC(=O)[C@@H](NC(=O)[C@H](Cc1ccccc1)NC(=O)CNC(=O)CNC[C@@H](N)Cc1ccccc1)[C@@H](C)O)C(=O)N[C@@H](CCCNC(=N)N)C(=O)N[C@@H](CCCCN)C(=O)N[C@@H](CO)C(=O)N[C@@H](C)C(=O)N[C@@H](CCCNC(=N)N)C(=O)N[C@@H](CCCCN)C(N)=O", "target": "Nociceptin receptor, with G protein (OPRL1, Homo sapiens, UniProt P41146)", "assay": "agonist", "endpoint": "Emax", "result": "68 ± 2%"}
{"SMILES": "C[C@H](Nc1ncnc(N)c1C#N)c1c(-c2ccccc2)[nH]c2c(Cl)cccc2c1=O", "target": "PIK3CB (Homo sapiens, UniProt P42338)", "assay": "enzyme activity", "scale": "baseline: IC50 PIK3CB over PI3Kδ", "endpoint": "selectivity ratio", "result": 125}
{"SMILES": "CCCCCCCCCCCCCCCC(=O)N[C@@H](CCC(=O)NCCCC[C@H](NC(=O)[C@H](CO)NC(=O)[C@@H]1CCCN1C(=O)[C@@H]1CCCN1C(=O)[C@@H]1CCCN1C(=O)[C@H](C)NC(=O)CNC(=O)[C@H](CO)NC(=O)[C@H](CO)NC(=O)[C@@H]1CCCN1C(=O)CNC(=O)CNC(=O)[C@H](C)NC(=O)[C@H](CC(C)C)NC(=O)[C@H](CC(C)C)NC(=O)[C@H](Cc1c[nH]c2ccccc12)NC(=O)[C@H](CC(N)=O)NC(=O)[C@@H](NC(=O)[C@H](Cc1ccccc1)NC(=O)[C@H](CCC(=O)O)NC(=O)C(C)(C)NC(=O)[C@H](C)NC(=O)[C@H](C)NC(=O)[C@H](CCC(N)=O)NC(=O)[C@H](CCCCN)NC(=O)[C@H](CC(=O)O)NC(=O)[C@H](CC(C)C)NC(=O)[C@H](Cc1ccc(O)cc1)NC(=O)[C@@H](NC(=O)[C@H](CO)NC(=O)[C@H](Cc1ccc(O)cc1)NC(=O)[C@H](CC(=O)O)NC(=O)[C@H](CO)NC(=O)[C@@H](NC(=O)[C@H](Cc1ccccc1)NC(=O)[C@@H](NC(=O)CNC(=O)[C@H](CCC(=O)O)NC(=O)CSCC(=O)NCCN1C(=O)CSC1=O)[C@@H](C)O)[C@@H](C)O)[C@@H](C)CC)C(C)C)C(N)=O)C(=O)O", "target": "GIPR (Homo sapiens, UniProt P48546)", "assay": "β-arrestin recruitment, agonist", "endpoint": "Emax", "result": "< 5%"}
{"SMILES": "CC[C@H](C)[C@H](NC(=O)[C@H](CCCNC(=N)N)NC(=O)[C@H](CCCNC(=N)N)NC(=O)[C@H](CC(C)C)NC(=O)[C@H](Cc1ccccc1)NC(=O)CNC(=O)CNC(=O)[C@@H](N)Cc1ccc(O)cc1)C(=O)N[C@@H](CCCNC(=N)N)C(=O)N1CCC[C@H]1C(=O)N[C@@H](CCCCN)C(=O)N[C@@H](CC(C)C)C(=O)N[C@@H](CCCCN)C(N)=O", "target": "Oprk1 (Rattus norvegicus, UniProt P34975)", "assay": "cAMP inhibition", "system": "CHO", "setting": "unit not given, with: 50 µM forskolin", "scale": "baseline: dynorphin A(1-13) amide", "endpoint": "efficacy", "result": 1}
{"note": "Repeated from above:"}
{"SMILES": "CCCCCCCCCCCCCCCC(=O)N[C@@H](CCC(=O)NCCCC[C@H](NC(=O)[C@H](CO)NC(=O)[C@@H]1CCCN1C(=O)[C@@H]1CCCN1C(=O)[C@@H]1CCCN1C(=O)[C@H](C)NC(=O)CNC(=O)[C@H](CO)NC(=O)[C@H](CO)NC(=O)[C@@H]1CCCN1C(=O)CNC(=O)CNC(=O)[C@H](C)NC(=O)[C@H](CC(C)C)NC(=O)[C@H](CC(C)C)NC(=O)[C@H](Cc1c[nH]c2ccccc12)NC(=O)[C@H](CC(N)=O)NC(=O)[C@@H](NC(=O)[C@H](Cc1ccccc1)NC(=O)[C@H](CCC(=O)O)NC(=O)C(C)(C)NC(=O)[C@H](C)NC(=O)[C@H](C)NC(=O)[C@H](CCC(N)=O)NC(=O)[C@H](CCCCN)NC(=O)[C@H](CC(=O)O)NC(=O)[C@H](CC(C)C)NC(=O)[C@H](Cc1ccc(O)cc1)NC(=O)[C@@H](NC(=O)[C@H](CO)NC(=O)[C@H](Cc1ccc(O)cc1)NC(=O)[C@H](CC(=O)O)NC(=O)[C@H](CO)NC(=O)[C@@H](NC(=O)[C@H](Cc1ccccc1)NC(=O)[C@@H](NC(=O)CNC(=O)[C@H](CCC(=O)O)NC(=O)CSCC(=O)NCCN1C(=O)CSC1=O)[C@@H](C)O)[C@@H](C)O)[C@@H](C)CC)C(C)C)C(N)=O)C(=O)O", "target": "GIPR (Homo sapiens, UniProt P48546)", "assay": "β-arrestin recruitment, agonist", "endpoint": "Emax", "result": "< 5%"}
